Results pooled from the literature.
Protocols differ between the studies behind these lines.
CRK2: Cyclin-dependent kinase 2 homolog (CRK2, Plasmodium falciparum, UniProt P61075)
Chain of UniProt P61075 (whole entry, looked up): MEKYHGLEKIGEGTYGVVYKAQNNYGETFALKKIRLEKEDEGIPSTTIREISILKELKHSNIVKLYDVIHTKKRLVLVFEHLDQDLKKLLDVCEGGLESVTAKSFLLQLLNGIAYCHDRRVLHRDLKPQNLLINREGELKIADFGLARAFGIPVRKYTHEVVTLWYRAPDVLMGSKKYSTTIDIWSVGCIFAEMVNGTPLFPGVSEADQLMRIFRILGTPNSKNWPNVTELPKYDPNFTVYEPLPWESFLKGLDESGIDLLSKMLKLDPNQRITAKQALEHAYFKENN
Chain of UniProt P15735 (whole entry, looked up): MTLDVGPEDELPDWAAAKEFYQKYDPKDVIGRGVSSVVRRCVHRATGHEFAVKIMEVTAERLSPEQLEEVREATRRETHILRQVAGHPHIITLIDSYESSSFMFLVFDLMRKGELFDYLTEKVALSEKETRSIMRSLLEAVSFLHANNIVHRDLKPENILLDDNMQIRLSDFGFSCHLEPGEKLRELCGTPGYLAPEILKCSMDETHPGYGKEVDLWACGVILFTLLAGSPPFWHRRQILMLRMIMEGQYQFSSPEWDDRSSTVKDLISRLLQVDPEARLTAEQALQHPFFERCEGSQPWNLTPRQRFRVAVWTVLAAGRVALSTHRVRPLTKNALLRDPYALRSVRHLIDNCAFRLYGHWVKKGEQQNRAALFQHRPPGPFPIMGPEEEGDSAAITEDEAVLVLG
Chain of UniProt Q9UKI8 (whole entry, looked up): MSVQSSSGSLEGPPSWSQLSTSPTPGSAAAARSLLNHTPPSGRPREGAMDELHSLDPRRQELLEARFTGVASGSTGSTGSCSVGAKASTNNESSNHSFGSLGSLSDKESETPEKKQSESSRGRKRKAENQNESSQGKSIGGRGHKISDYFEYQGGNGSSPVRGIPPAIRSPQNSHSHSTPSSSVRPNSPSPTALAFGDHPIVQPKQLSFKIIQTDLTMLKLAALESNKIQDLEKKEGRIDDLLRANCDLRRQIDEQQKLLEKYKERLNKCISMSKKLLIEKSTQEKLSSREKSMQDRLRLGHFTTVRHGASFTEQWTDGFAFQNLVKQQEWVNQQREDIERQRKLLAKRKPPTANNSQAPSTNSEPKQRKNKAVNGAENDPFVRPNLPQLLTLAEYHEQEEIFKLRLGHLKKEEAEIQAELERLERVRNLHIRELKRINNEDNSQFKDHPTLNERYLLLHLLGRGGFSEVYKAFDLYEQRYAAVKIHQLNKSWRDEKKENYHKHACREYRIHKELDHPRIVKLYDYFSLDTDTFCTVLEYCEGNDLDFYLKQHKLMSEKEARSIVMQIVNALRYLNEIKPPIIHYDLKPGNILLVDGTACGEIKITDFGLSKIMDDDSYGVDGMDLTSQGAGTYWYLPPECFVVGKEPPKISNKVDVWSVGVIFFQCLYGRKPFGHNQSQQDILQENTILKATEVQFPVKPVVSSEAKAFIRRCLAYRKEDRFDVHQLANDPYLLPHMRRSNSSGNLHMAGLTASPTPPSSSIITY
Chain of UniProt Q14004 (whole entry, looked up): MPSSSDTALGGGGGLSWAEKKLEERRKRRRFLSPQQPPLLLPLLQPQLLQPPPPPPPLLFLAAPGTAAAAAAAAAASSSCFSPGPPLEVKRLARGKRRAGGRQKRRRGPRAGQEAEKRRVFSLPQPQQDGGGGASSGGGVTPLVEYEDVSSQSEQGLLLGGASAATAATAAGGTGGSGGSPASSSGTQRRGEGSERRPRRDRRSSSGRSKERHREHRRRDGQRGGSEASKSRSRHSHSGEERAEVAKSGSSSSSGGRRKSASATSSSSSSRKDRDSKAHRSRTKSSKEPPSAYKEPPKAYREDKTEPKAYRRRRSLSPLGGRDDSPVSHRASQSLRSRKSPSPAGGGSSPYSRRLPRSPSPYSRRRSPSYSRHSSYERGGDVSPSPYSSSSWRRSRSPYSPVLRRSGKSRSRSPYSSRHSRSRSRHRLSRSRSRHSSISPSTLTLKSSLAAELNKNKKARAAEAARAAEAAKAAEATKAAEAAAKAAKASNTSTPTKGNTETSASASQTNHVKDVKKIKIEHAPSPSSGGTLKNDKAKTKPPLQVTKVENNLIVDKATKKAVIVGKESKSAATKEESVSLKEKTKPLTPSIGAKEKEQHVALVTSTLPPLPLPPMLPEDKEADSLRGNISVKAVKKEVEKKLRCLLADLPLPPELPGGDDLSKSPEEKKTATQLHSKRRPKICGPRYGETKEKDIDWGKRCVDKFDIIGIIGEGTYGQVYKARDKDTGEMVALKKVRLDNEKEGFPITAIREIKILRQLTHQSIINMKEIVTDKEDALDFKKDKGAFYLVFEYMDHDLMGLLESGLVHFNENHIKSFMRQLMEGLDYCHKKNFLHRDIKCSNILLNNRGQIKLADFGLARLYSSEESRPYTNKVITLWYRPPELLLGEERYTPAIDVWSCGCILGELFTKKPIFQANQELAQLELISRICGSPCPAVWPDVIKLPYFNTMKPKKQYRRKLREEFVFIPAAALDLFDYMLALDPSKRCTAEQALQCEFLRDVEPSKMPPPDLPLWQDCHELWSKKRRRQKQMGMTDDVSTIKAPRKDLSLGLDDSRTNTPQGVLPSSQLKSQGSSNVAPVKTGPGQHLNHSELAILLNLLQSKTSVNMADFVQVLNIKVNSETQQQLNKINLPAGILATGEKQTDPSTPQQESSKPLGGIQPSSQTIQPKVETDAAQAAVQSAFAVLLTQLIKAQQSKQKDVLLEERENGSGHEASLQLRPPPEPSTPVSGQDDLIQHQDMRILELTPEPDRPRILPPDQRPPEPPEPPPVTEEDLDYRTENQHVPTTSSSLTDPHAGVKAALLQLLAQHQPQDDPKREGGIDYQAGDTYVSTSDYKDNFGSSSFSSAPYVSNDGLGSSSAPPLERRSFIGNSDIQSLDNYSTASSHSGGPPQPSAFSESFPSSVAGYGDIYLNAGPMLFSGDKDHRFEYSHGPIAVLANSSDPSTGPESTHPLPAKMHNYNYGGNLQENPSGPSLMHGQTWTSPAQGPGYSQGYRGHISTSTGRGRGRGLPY
Chain of UniProt Q6P2M8 (whole entry, looked up): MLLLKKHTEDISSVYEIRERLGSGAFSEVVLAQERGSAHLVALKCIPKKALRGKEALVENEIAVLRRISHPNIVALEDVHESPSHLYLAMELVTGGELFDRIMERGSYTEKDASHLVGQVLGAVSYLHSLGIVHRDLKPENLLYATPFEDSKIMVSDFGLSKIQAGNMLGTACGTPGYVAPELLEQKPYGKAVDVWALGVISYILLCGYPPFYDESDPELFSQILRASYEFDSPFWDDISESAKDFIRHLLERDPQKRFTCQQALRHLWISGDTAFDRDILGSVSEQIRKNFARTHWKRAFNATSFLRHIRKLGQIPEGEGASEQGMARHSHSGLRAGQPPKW
Chain of UniProt O14965 (whole entry, looked up): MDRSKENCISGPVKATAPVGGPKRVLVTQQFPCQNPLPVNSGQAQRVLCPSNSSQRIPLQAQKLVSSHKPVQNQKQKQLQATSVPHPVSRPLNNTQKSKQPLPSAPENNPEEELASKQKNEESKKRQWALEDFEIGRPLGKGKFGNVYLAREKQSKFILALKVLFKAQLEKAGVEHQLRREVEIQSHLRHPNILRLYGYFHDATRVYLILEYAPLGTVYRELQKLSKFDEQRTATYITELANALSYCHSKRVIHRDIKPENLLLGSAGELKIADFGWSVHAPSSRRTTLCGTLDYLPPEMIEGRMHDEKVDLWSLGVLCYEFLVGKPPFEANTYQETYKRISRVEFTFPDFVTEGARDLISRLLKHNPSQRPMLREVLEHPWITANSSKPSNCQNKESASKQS
Chain of UniProt P42679 (whole entry, looked up): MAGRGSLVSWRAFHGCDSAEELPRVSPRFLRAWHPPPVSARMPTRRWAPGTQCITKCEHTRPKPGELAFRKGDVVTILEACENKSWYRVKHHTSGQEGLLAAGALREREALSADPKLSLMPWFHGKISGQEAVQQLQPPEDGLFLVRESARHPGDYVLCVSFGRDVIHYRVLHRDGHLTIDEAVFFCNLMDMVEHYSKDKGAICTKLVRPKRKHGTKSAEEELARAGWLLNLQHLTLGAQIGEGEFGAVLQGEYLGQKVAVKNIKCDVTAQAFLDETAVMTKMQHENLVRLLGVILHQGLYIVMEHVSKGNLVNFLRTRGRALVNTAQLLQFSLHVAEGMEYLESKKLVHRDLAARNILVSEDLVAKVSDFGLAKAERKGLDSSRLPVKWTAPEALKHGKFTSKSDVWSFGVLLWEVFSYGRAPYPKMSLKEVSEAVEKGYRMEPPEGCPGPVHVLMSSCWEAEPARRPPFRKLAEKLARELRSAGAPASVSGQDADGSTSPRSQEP
Chain of UniProt P49336 (whole entry, looked up): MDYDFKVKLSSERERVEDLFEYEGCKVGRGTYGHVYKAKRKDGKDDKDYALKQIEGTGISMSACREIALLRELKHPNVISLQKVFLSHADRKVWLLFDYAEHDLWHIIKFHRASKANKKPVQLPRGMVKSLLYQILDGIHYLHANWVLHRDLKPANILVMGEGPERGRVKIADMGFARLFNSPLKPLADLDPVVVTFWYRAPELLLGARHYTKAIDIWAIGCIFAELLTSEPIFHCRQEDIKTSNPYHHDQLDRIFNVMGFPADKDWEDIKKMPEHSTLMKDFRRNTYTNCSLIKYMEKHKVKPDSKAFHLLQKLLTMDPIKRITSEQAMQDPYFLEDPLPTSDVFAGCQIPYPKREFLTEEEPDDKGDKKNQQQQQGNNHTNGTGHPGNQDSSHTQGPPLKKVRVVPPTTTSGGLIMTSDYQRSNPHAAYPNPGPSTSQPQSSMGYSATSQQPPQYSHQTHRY
Chain of UniProt O75716 (whole entry, looked up): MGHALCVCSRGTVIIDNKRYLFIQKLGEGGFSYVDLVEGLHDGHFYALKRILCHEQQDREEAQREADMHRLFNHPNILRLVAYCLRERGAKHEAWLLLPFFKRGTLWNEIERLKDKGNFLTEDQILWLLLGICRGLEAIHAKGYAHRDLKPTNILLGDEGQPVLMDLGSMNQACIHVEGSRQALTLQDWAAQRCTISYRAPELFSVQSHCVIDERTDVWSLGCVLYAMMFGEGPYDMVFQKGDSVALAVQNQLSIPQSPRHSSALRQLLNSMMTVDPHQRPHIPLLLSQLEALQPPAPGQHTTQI

C1=C/COCc2cc(ccc2OCCN2CCCC2)Nc2nccc(n2)-c2cccc(c2)COC/1  remaining binding (PNCK (Homo sapiens, UniProt Q6P2M8); binding; 0.1 µM): 34%
F[C@@H]1CCN(c2nccc(-c3cnn4ncccc34)n2)C1  remaining binding (CRK2; binding; 1 µM): 100%
C=CC(=O)N1CCC(COCC(=O)N2CCN(c3nc(-c4cnc(N)nc4C(F)F)nc(N4CCOC[C@@H]4C)n3)CC2)CC1  remaining binding (KDR (Homo sapiens, UniProt P35968); binding, competition with immobilised ligand; 1 µM): 94%
COc1cc(-c2cncc3c2CN(C)Cc2cc(N4CCNCC4)ccc2-3)cc(OC)c1OC  remaining activity (Aurora kinase A (AURKA, Homo sapiens, UniProt O14965); enzyme activity, inhibitor; 1 µM): 104%
CNS(=O)(=O)c1ccc(Nc2ncc(C(F)(F)F)c(N3CCC[C@](C)(O)C3)n2)c(C)c1  remaining binding (CDK8 (Homo sapiens, UniProt P49336); binding, competition with immobilised ligand; 1 µM): 100%
COc1cnc(Nc2cccc(S(N)(=O)=O)c2)nc1N1CCN(c2ccccc2)CC1  remaining binding (CRK2; binding, competition with immobilised ligand; 1 µM): 76%
Cc1cc([C@@H](C)Nc2ccccc2C(=O)O)c2nc(N3CCC(F)(F)CC3)c(C#N)c(=O)n2c1  remaining binding (GSK3B (Homo sapiens, UniProt P49841); binding, competition with immobilised ligand; 10 µM): 100%
FC(F)(F)Oc1cccc(-c2cnc3ccc(-c4ccncc4)nn23)c1  remaining binding (TLK1 (Homo sapiens, UniProt Q9UKI8); binding, competition with immobilised ligand; 5 µM): 87%
COc1ccc2oc(-c3ccc4nc(N)oc4c3)c/c(=N\c3ccccc3NC(=O)CCN)c2c1  remaining binding (MATK (Homo sapiens, UniProt P42679); binding; 1 µM): 136%
C[C@]1(O)CCCN(c2nc(Nc3ccc(S(=O)(=O)N[C@H]4CC[C@H](CN5CCN(c6ccc(C7CCC(=O)NC7=O)cc6F)CC5)CC4)cc3Cl)ncc2C(F)(F)F)C1 (stereo partly shown)  remaining binding (STK16 (Homo sapiens, UniProt O75716); binding, competition with immobilised ligand; 1 µM): 100%
CNc1ncc2c(/C=C/C(=O)N3CCC(OC)CC3)nn(Cc3cccc(C(F)(F)F)c3)c2n1  remaining activity (PHKG2 (Homo sapiens, UniProt P15735); enzyme activity, inhibitor, radiometric; 1 µM): 81%
CN(C)c1nccc(-c2cnc3ncccn23)n1  remaining binding (RIOK3 (Homo sapiens, UniProt O14730); binding; 1 µM): 100%
CCCCC(=O)Nc1ccc(-c2ccc3ncn(CCC)c(=O)c3c2)cn1  remaining binding (CDK13 (Homo sapiens, UniProt Q14004); binding, competition with immobilised ligand; 0.5 µM): 100%

Some of these lines once more:
C[C@]1(O)CCCN(c2nc(Nc3ccc(S(=O)(=O)N[C@H]4CC[C@H](CN5CCN(c6ccc(C7CCC(=O)NC7=O)cc6F)CC5)CC4)cc3Cl)ncc2C(F)(F)F)C1 (stereo partly shown)  remaining binding (STK16 (Homo sapiens, UniProt O75716); binding, competition with immobilised ligand; 1 µM): 100%
